Measured values from different studies.
Numbered parts are unrelated; each lists some results of a single study.
Sequence of UniProt Q9NSY1 (whole entry, looked up): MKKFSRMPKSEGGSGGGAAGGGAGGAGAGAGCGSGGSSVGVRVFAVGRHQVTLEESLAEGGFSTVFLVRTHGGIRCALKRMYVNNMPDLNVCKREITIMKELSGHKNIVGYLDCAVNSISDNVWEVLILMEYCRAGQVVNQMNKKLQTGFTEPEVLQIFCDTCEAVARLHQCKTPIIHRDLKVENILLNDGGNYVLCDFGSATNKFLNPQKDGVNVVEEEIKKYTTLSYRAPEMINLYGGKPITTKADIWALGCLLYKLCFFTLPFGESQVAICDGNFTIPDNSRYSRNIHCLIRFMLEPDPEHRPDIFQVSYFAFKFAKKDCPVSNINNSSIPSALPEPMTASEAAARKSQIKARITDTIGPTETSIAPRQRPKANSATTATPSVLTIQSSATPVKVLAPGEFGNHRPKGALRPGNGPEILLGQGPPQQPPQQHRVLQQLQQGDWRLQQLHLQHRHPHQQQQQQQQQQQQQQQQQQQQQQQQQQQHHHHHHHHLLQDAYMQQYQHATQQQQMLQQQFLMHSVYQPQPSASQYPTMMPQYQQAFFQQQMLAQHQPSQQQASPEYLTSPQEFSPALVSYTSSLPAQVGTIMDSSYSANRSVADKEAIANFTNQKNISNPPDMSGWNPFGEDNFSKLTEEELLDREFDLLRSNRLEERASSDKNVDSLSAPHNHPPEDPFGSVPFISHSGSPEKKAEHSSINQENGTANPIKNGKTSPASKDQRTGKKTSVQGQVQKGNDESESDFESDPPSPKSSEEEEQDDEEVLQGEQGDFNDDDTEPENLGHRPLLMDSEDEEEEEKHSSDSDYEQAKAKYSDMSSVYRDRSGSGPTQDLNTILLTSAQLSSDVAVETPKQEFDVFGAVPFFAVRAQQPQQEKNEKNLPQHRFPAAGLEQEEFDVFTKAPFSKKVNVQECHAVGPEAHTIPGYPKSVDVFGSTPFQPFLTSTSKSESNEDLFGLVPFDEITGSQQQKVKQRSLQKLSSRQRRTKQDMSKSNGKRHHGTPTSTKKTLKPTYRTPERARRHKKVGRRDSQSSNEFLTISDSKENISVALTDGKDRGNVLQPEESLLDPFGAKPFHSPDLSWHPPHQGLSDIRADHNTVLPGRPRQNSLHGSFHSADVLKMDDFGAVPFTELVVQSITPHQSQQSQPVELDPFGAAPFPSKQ
Sequence of UniProt Q52WX2 (whole entry, looked up): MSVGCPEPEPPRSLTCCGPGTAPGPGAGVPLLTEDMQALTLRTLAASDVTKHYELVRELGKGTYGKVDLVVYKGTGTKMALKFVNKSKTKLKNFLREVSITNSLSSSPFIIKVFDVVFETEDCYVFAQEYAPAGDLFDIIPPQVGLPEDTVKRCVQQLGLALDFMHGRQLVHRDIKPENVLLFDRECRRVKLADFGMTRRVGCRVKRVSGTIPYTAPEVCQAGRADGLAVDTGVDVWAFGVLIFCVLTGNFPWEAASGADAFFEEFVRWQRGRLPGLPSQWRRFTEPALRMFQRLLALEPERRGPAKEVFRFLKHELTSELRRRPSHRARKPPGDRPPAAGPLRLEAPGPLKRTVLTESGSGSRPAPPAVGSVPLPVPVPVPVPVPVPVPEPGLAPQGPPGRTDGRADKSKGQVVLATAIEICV
Sequence of UniProt Q6P3R8 (whole entry, looked up): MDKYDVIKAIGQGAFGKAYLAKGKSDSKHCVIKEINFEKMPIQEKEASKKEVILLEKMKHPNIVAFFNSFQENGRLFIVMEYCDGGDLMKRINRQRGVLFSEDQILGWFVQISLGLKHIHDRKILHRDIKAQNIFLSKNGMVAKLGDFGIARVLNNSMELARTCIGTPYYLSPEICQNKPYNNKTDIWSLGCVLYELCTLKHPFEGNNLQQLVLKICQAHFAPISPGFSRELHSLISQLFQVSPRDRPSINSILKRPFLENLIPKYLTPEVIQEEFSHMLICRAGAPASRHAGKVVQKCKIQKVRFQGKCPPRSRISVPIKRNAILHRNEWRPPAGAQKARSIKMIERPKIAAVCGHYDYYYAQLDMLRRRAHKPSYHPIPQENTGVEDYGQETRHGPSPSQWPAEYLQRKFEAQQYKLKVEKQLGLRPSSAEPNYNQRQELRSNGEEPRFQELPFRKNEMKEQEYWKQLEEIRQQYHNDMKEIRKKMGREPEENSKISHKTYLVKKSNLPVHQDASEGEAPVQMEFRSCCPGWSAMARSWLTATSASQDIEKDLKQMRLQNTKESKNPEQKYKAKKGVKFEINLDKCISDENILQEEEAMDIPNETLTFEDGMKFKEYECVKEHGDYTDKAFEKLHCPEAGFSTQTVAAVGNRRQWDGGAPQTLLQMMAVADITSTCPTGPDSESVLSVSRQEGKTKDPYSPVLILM
Sequence of UniProt O75676 (whole entry, looked up): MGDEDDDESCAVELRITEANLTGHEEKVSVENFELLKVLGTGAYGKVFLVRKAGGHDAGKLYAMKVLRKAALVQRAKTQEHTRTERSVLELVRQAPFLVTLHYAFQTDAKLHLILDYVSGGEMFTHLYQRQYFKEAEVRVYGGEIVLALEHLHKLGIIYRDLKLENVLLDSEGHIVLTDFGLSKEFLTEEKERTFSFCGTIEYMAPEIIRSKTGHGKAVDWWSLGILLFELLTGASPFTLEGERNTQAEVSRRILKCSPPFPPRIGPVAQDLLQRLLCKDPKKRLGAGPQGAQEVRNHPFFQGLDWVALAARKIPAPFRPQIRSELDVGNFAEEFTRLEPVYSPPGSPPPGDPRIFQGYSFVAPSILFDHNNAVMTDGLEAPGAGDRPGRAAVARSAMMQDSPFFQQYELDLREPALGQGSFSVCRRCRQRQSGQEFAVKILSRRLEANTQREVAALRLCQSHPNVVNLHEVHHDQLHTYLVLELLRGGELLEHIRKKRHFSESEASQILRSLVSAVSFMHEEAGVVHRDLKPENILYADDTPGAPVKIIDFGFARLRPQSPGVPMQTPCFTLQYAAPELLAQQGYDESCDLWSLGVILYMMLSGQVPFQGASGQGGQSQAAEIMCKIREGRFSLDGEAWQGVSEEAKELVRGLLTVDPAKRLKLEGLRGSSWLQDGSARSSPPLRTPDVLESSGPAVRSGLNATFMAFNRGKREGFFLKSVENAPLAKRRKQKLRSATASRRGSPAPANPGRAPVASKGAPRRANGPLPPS
Sequence of UniProt P36896 (whole entry, looked up): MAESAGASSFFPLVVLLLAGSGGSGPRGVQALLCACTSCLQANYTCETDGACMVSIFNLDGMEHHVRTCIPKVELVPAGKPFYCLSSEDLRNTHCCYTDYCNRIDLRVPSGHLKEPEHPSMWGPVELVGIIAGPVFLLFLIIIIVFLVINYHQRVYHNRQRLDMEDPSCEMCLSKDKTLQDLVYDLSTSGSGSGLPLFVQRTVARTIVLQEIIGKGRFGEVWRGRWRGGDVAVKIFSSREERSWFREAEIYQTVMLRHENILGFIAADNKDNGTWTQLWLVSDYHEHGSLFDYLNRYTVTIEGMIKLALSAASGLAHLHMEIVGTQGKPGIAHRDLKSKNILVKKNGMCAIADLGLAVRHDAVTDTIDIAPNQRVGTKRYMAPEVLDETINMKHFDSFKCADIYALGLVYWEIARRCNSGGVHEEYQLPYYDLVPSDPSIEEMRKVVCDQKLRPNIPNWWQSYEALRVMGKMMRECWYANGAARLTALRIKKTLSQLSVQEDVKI
Sequence of UniProt P42681 (whole entry, looked up): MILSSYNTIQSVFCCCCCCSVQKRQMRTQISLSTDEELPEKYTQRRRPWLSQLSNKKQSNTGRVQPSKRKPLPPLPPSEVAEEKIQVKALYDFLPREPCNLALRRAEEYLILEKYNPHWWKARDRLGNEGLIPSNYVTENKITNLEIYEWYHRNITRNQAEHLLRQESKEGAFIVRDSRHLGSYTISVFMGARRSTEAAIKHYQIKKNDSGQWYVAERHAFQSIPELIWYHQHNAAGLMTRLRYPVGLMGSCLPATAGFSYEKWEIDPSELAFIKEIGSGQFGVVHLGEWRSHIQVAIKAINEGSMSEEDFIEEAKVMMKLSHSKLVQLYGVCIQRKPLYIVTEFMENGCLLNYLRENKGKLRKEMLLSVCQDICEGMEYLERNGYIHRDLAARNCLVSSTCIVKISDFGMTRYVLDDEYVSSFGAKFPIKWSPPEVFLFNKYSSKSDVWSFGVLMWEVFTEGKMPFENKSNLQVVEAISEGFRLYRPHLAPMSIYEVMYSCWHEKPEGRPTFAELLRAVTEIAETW
Sequence of UniProt Q9UIK4 (whole entry, looked up): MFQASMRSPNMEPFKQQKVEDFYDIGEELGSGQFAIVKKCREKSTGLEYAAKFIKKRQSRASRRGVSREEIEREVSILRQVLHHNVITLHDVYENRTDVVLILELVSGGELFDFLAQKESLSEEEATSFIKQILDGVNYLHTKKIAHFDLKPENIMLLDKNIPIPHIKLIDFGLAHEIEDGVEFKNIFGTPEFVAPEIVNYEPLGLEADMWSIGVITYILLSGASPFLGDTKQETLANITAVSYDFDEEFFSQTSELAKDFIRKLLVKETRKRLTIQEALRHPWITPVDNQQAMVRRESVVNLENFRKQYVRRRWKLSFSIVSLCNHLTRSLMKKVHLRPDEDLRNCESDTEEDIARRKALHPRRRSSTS
Sequence of UniProt Q9HBH9 (whole entry, looked up): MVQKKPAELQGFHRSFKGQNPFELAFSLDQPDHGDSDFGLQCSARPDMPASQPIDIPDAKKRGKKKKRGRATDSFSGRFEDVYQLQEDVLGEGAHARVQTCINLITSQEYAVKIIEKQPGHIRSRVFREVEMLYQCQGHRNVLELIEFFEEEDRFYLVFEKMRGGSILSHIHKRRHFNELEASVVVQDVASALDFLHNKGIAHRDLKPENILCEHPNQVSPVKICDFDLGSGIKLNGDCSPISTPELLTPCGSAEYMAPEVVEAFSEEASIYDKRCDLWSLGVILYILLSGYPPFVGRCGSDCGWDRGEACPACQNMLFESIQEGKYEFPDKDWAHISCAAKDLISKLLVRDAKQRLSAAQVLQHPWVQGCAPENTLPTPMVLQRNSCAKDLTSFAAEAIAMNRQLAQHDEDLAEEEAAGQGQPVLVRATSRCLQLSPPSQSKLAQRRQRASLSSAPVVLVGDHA

Study 1
Species: mouse
Sample: microsomes or S9
Tested at: 2 µM
Time: 0.5 h
Structure (SMILES) | remaining compound
CC1CC(C)C(C(=O)NCC(Nc2ccccc2)C(C)C)O1 (centres unmarked) | 0.0691%
CN(C)C(=O)COCC(=O)Nc1ccc(C#N)cc1 | 1.79%
O=C(C1CCCC1)N1CCn2c(nnc2-c2ccccc2)C1 | 2.52%
CC1(C)CC2(CCCN(CC(O)(c3ccccc3)c3ccccc3)C2)CCO1 (centres unmarked) | 0.00509%
Cn1ncc2c(-n3cc(Br)cn3)ncnc21 | 92.5%

Study 2
Cell line: HaCaT
Tested at: 100 µM
Time: 36 h
SMILES | viability [%]
Cc1ccnc(NS(=O)(=O)c2ccc(N)cc2)n1 | 72.5
CO[C@]12C[C@@H](COC(=O)c3cncc(Br)c3)CN(C)[C@@H]1Cc1cn(C)c3cccc2c13 | 5.41
C=CC[C@@H]1/C=C(\C)C[C@H](C)C[C@H](OC)[C@H]2O[C@@](O)(C(=O)C(=O)N3CCCC[C@H]3C(=O)O[C@H](/C(C)=C/[C@@H]3CC[C@@H](O)[C@H](OC)C3)[C@H](C)[C@@H](O)CC1=O)[C@H](C)C[C@@H]2OC | 5.92

Study 3
SMILES: CCC(=O)Nc1ccc2ncnc(Nc3cccc(Br)c3)c2c1
Observed: enzyme activity
Mode: inhibitor
Tested at: 0.5 µM
Baseline: control
target | remaining activity
Serine/threonine-protein kinase Chk2 (CHEK2, Homo sapiens, UniProt O96017) | 87.1%
cAMP-dependent protein kinase catalytic subunit alpha (PRKACA, Homo sapiens, UniProt P17612) | 94.6%
Cyclin-dependent kinase 5, with p25 (CDK5, Homo sapiens, UniProt Q00535) | 78.4%
Protein kinase C alpha type (PRKCA, Homo sapiens, UniProt P17252) | 96.5%
Serine/threonine-protein kinase Nek2 (NEK2, Homo sapiens, UniProt P51955) | 87.5%
STE20/SPS1-related proline-alanine-rich protein kinase (STK39, Homo sapiens, UniProt Q9UEW8) | 96.1%
Death-associated protein kinase 2 (DAPK2, Homo sapiens, UniProt Q9UIK4) | 121%

Study 4
SMILES: COc1ccc2cc(OCC3(C(=O)O)CN(C(=O)c4ccc(F)cc4)C3)ccc2c1
Technique: competition with immobilised ligand
Tested at: 1 µM
target | observed | remaining binding
Myosin light chain kinase family member 4 (MYLK4, Homo sapiens, UniProt Q86YV6) | cell-free assay | 100%
Hepatocyte growth factor receptor (MET, Homo sapiens, UniProt P08581, Y1235D) | cell-free assay | 91%
Receptor-type tyrosine-protein kinase FLT3 (FLT3, Homo sapiens, UniProt P36888, D835V/ITD) | cell-free assay | 91%
Mitogen-activated protein kinase kinase kinase 3 (MAP3K3, Homo sapiens, UniProt Q99759) | cell-free assay | 97%
MAP kinase-interacting serine/threonine-protein kinase 2 (MKNK2, Homo sapiens, UniProt Q9HBH9) | cell-free assay | 96%
Tyrosine-protein kinase TXK (TXK, Homo sapiens, UniProt P42681) | binding | 100%
Activin receptor type-1B (ACVR1B, Homo sapiens, UniProt P36896) | cell-free assay | 78%
Receptor-type tyrosine-protein kinase FLT3 (FLT3, Homo sapiens, UniProt P36888, D835H) | cell-free assay | 71%
Mitogen-activated protein kinase 11 (MAPK11, Homo sapiens, UniProt Q15759) | cell-free assay | 78%
Epidermal growth factor receptor (EGFR, Homo sapiens, UniProt P00533, T790M) | cell-free assay | 100%
Ribosomal protein S6 kinase alpha-4, N-terminal kinase domain (RPS6KA4, Homo sapiens, UniProt O75676) | cell-free assay | 100%
Serine/threonine-protein kinase SBK1 (SBK1, Homo sapiens, UniProt Q52WX2) | cell-free assay | 100%
Serine/threonine-protein kinase Nek5 (NEK5, Homo sapiens, UniProt Q6P3R8) | cell-free assay | 100%
Casein kinase II subunit alpha' (CSNK2A2, Homo sapiens, UniProt P19784) | cell-free assay | 100%
Fibroblast growth factor receptor 1 (FGFR1, Homo sapiens, UniProt P11362) | cell-free assay | 100%
BMP-2-inducible protein kinase (BMP2K, Homo sapiens, UniProt Q9NSY1) | cell-free assay | 100%

Further values, each from its own experiment
SMILES | target | observed | technique | endpoint | value
CN1CCC[C@H]1COc1nc2c(c(N3CCN(S(C)(=O)=O)[C@@H](CC#N)C3)n1)CCN(c1cccc3cccc(Cl)c13)C2 | GTPase KRas (KRAS, Homo sapiens, UniProt P01116, Q61H) | target engagement in cells | BRET | IC50 | 0.84 µM
